Experimental data collected from several papers.
Each line is one published result; not all experiments were run side by side. Several values in a cell are separate wells, animals, samples, runs or records. Numbers after ± are the reported error.

`COc1cccc(OC)c1-c1cc(C(=O)NC2(C(=O)O)C3CC4CC(C3)CC2C4)nn1-c1ccc(C(=O)N(C)CCCN(C)CCCN(C)C(=O)CN2CCN(CC(=O)[O-])CCN(CC(=O)[O-])CCN(CC(=O)[O-])CC2)cc1C(C)C.[177Lu+3]` (stereo not drawn) gave a tumour-to-lung ratio of 4.63 (mouse, HT-29 xenograft; 4 h post injection, biodistribution; relative to: tumour over lung uptake).
`COc1cc2[nH]c(C)c(-c3cc4ccccc4s3)c(=O)c2cc1Cl` gave a kinetic solubility of under 2 µM (pH 7.4).
With `Oc1ccc(/C=C/c2cc(O)cc(O)c2)cc1` the Vd/F was 52.5 ± 10.2 L/kg (male Wistar rats, plasma; oral, 10 mg/kg).
`Cc1cc(Nc2ccc(S(F)(F)(F)(F)F)cc2)n2nc(C(C)(F)F)nc2n1` — result for “adverse event Fatigue”: 0% (Plasmodium vivax malaria patients; oral, 600 mg).
With `COc1cccc(-c2n[nH]c(SCc3ccccn3)n2)c1OC` the plasma concentration was 248 ng/mL (Sprague-Dawley rats, both sexes; oral dietary, 10 mg/kg/day, day 7, 12 h).
For `Cc1cc(-c2nccc3c2ccn3CC(=O)Nc2ccc(-c3cnccn3)cn2)ccn1`, “subjects with any grade 2 TEAE” read 0% (human; SAD part, single 20 mg dose).
Under “total testosterone level”, `N#Cc1ccc2c(c1)[C@H]1CCCN(C(=O)c3ccc4[nH]cnc4c3)[C@H]1C2` is recorded as 1 nmol/L (human females; 240 mg, day 7).
The treatment-related diarrhoea of `C=CCN1CC(=O)N2[C@@H](Cc3ccc(O)cc3F)C(=O)N(Cc3cccc(N4CC(N5CCN(CC)CC5)C4)n3)C[C@@H]2N1C(=O)NCc1ccccc1` is reported as 0% (advanced solid tumour patients; oral, 45 mg twice daily, grade ≥3, dose-escalation).
For `CCN(CC)Cc1ccc2cc(COC(=O)Nc3ccc(C(=O)NO)cc3)ccc2c1`, “stability relative error” read 101% (rat plasma; 3200 ng/mL, 21 days, -80 °C; relative to: nominal concentration).
For `CNC(=O)c1ccc(-c2cnc3ncc(Cc4ccc5ncccc5c4)n3n2)cc1F`, “adverse event incidence” read 9% (phase 1 clinical trial, item: blood creatinine increased; HCC expansion cohort; oral, 600 mg twice daily, grade 3 or 4).
For `FC(F)(F)c1ccc(CNc2ccc(Cc3c[nH]c4ncc(Cl)cc34)cn2)cn1`, “treatment-related adverse events” read 4% (item: Hypophosphatemia; patients with advanced solid tumours, non-TGCT cohort; oral, 1000 mg/day, grade 3 or higher).
`COc1ccc(CNc2nc(-c3ccc(C(=O)O)cc3)nc3c2c2ccccc2n3C)cc1Cl` gave a body weight of 21 g and 22 g and 23.9 g and 23.1 g (NSG mice; dose not given, day 3 of treatment).
`CC=CC1CCC(C2CCC(CCC)CC2)CC1` (stereo not drawn) — result for “median fetal accumulation”: 0.711 ng/g (rat, fetus; 1000 ng/mL in perfusate, middle dose, mixture of 21 LCMs).
Under “subjects with Vomiting”, `C[C@H]1CN(C(=O)CC#N)[C@]12CCN(c1ncnc3[nH]ccc13)C2` is recorded as 0% (healthy human; oral, 1.5 mg, single dose).
For `COc1ncc(-c2nc3c(n2C(C)C)[C@H](c2ccc(Cl)cc2)N(c2cc(Cl)cn(C)c2=O)C3=O)c(OC)n1`, the median half-life was 40.1 h (human patients, plasma; oral, 400 mg, high-dose arm, cycle 2 day 1).
The Paronychia incidence of `C[C@@H]1COCCN1c1cc(C2([S@](C)(=N)=O)CC2)nc(-c2cc[nH]c3nccc2-3)n1` is reported as 0% (Japanese advanced solid tumour patients; oral, 160 mg twice daily, CTCAE grade ≥3).
For `Cc1cc(-c2nnc(N)nc2-c2ccc(F)cc2)cc(Cl)n1`, “patients with treatment-related adverse events” read 29.4% (item: Vomiting; human phase Ia/Ib NSCLC, post-immunotherapy; oral, 100 mg once daily).
With `CCn1cc(C(=O)N2CCOCC2)c(=O)c2cc(NC3Cc4ccccc4C3)cnc21` the AUC(0-last) was 36800 ng·h/mL (human, fasted, plasma; oral, 1200 mg single dose, tablet, arithmetic mean).
With `CN[C@@H](C)C(=O)N[C@H]1CN(S(=O)(=O)c2cccc(S(=O)(=O)N3CC[C@H]4CC[C@@H](C(=O)NC(c5ccccc5)c5ccccc5)N4C(=O)[C@@H](NC(=O)[C@H](C)NC)C3)c2)CC[C@H]2CC[C@@H](C(=O)NC(c3ccccc3)c3ccccc3)N2C1=O` the AUC(0-t) was 529 ± 182 ng·h/mL (LC-MS/MS; human, advanced solid tumours, plasma; intravenous, 30 mg weekly, day 1).
`Cc1ccc(Sc2ccccc2N2CCNCC2)c(C)c1`: “participants with TEAE” 0% (item: feeling abnormal; healthy adult men; oral, 5 mg daily, 12 days).
With `Cc1nc2cccc(OCC(C)(C)C(=O)NC(C)C)c2c(N)c1C(=O)O` the Cmax ratio was 4.18 (female Sprague-Dawley rat, plasma; dietary, 30 mg/kg/day; relative to: day 90 over day 7).

A few entries again:
`COc1cccc(OC)c1-c1cc(C(=O)NC2(C(=O)O)C3CC4CC(C3)CC2C4)nn1-c1ccc(C(=O)N(C)CCCN(C)CCCN(C)C(=O)CN2CCN(CC(=O)[O-])CCN(CC(=O)[O-])CCN(CC(=O)[O-])CC2)cc1C(C)C.[177Lu+3]` (stereo not drawn) gave a tumour-to-lung ratio of 4.63 (mouse, HT-29 xenograft; 4 h post injection, biodistribution; relative to: tumour over lung uptake).
`COc1cc2[nH]c(C)c(-c3cc4ccccc4s3)c(=O)c2cc1Cl` gave a kinetic solubility of under 2 µM (pH 7.4).
